Measured values collected from several papers.
Numbers after ± are the reported error.
CNR1: Cannabinoid receptor 1 (CNR1, Homo sapiens, UniProt P21554)
Chain of UniProt P21554 (whole entry, unmodified, looked up): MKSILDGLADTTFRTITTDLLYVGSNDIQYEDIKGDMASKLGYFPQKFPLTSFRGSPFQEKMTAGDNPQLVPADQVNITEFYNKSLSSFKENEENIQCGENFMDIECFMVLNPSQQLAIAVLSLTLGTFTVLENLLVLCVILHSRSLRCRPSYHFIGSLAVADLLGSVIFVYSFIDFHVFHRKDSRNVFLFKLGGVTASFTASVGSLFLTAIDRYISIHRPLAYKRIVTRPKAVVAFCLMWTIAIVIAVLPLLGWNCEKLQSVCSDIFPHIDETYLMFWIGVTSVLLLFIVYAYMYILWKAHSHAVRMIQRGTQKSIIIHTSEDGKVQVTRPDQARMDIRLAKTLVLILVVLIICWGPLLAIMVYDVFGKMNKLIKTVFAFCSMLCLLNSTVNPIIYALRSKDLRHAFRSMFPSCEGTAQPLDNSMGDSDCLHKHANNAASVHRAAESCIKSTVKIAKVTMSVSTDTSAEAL

SMILES	target	assay	conditions	how to read	Emax
CCCCCn1ccc(C(=O)NC(C)(C)c2ccc(C)cc2)n1	CNR1	calcium signal, agonist, fluorescence	–	–	46%
CCCCCn1cc(C(=O)c2cccc3ccccc23)c2ccccc21	CNR1	cAMP inhibition, agonist, CAMYEL BRET biosensor	added: forskolin 10 µM	baseline: reference agonist at wild type	103 ± 2%
CCCCCn1ccc(C(=O)N[C@H](C(N)=O)C(C)C)n1	CNR1	calcium signal, agonist, fluorescence	–	–	35%
CCCCCn1cc(C(=O)c2ccc3c(c2)CC(C)(C)C3)c2ccccc21	CNR1	Gαi1 activation, agonist, BRET	–	baseline: reference agonist	38 ± 6.5%
O=[N+]([O-])CC(c1ccco1)c1c(-c2ccccc2)[nH]c2ccccc12 (stereo not drawn)	Cannabinoid receptor 1, with GoB (CNR1, Homo sapiens, UniProt P21554)	GoB dissociation, agonist, BRET	–	–	29.1 ± 2.15%
CCCCCn1cc(C(=O)c2cccc3c2CC(C)(C)C3)c2ccccc21	CNR1 (Homo sapiens, UniProt P21554, F174A)	Gαi1 engagement, agonist, BRET	–	baseline: reference agonist at wild-type CB1	149 ± 3.4%
COC(=O)[C@@H](NC(=O)c1nn(Cc2ccc(F)cc2)c2cc(OCCCCNC(N)=O)ccc12)C(C)(C)C	CNR1	β-arrestin-1 recruitment, agonist	–	baseline: FUB	110 ± 10%
CCCCCn1ccc(C(=O)NC(C)(C)c2ccc(N)cc2)n1	CNR1	calcium signal, agonist, fluorescence	–	–	61%
COc1ccccc1C(C[N+](=O)[O-])c1c(-c2ccccc2)[nH]c2ccccc12 (stereo not drawn)	CNR1 (Homo sapiens, UniProt P21554, Y397F)	Gαi1-γ2 dissociation, BRET	–	–	95.6 ± 3.78%
CCCCCn1cc(C(=O)c2ccc3ccccc3c2)c2ccccc21	CNR1 (Homo sapiens, UniProt P21554, I267L/L193I/L359V)	cAMP inhibition, agonist, CAMYEL BRET biosensor	added: forskolin 10 µM	baseline: reference agonist at wild type	112 ± 4%
CCCCCn1ccc(C(=O)NC(C)(C)c2ccc(CNC(C)=O)cc2)n1	CNR1	calcium signal, agonist, fluorescence	–	–	22%
Cc1ccc2c(C(C[N+](=O)[O-])c3cccs3)c(-c3ccccc3)[nH]c2c1 (stereo not drawn)	CNR1 (Homo sapiens, UniProt P21554, I245M)	receptor activation, agonist	–	–	106 ± 3.72%

For quick reference, copied from above:
SMILES	target	assay	conditions	how to read	Emax
CCCCCn1ccc(C(=O)N[C@H](C(N)=O)C(C)C)n1	CNR1	calcium signal, agonist, fluorescence	–	–	35%
